Results collected from several papers.
Each line is one published result; not all experiments were run side by side. Several values in a cell are separate wells, animals, samples, runs or records. ± marks the error that the study gave.

Structure (SMILES) | assay | test system | setting | scale | endpoint | result
CC(C)c1ccc2c(c1)CCC1C(C)(CN(CC(O)C[N+](C)(C)C)CC(O)C[N+](C)(C)C)CCCC21C (stereo not drawn) | – | mouse red blood cells | 1 h, 37 °C | – | HC50 | > 1000 µg/mL
O=C1/C(=C/c2ccc(B(O)O)cc2)CC/C1=C\c1ccc(B(O)O)cc1 | – | water | – | – | electrophoretic mobility | -0.000118 cm2/(V·s)
C#CCN(CCCNC(=O)CCCCC[N+]1=C(/C=C/C2=C(Cl)C(=C/C=C3\N(CCCCCC(=O)[O-])c4ccccc4C3(C)C)/CCC2)C(C)(C)c2ccccc21)CCCOc1ccc(Cl)cc1Cl | – | mouse plasma | 1 µg/mL nominal, 2 weeks, -80 °C | – | concentration | 1050 ± 60 ng/mL
CCCC[C@H](NC(=O)[C@H](CC(C)C)N(C)C(=O)CNC(=O)[C@@H](NC(=O)[C@H](Cc1ccccc1)NC(=O)[C@H](CCCCN)NC(=O)[C@@H](N)CC(=O)O)C(C)C)C(N)=O | – | Göttingen minipig, plasma | subcutaneous, 100 µg/kg | – | elimination half-life | 9.1 min
CC(=O)N[C@H](CC(=O)O)C(=O)N[C@H](Cc1c[nH]c2ccccc12)C(=O)N[C@H](Cc1ccccc1)C(=O)N[C@H](CCCCN)C(=O)N[C@H](C)C(=O)N[C@H](Cc1ccccc1)C(=O)N[C@H](Cc1ccc(O)cc1)C(=O)N[C@H](CC(=O)O)C(=O)N[C@H](CCCCN)C(=O)N[C@@H](C(=O)N[C@H](C)C(=O)N[C@H](CCC(=O)O)C(=O)N[C@H](CCCCN)C(=O)N[C@H](Cc1ccccc1)C(=O)N[C@H](CCCCN)C(=O)N[C@H](CCC(=O)O)C(=O)N[C@H](C)C(=O)N[C@H](Cc1ccccc1)C(N)=O)C(C)C | – | statin-treated high-risk CHD women, plasma | oral, 500 mg daily, day 1, 0 to 2 h, mean, outlier excluded | – | AUC(0-t) | 108 ng·h/mL
[2H]C([2H])([2H])NC(=O)c1ccc(N2C(=S)N(c3ccc(C#N)c(C(F)(F)F)c3)C(=O)C2(C)C)cc1F | – | human, male | oral, 160 mg, single dose, fed | – | Vd/F | 45.2 ± 19.1 L
Cc1ccccc1/N=N/c1ccc(/N=N/c2c(O)ccc3ccccc23)c(C)c1 | – | extracted rat blood QC samples | 0.2 µg/L, 8 h, room temperature, short-term stability | – | measured concentration | 0.227 µg/L
CC[C@@H](C)[C@H]1NC(=O)[C@@H]([C@H](C)O)NC(=O)[C@@H](Cc2c[nH]cn2)NC(=O)CNC(=O)[C@@H](CCCNC(=N)N)NC(=O)CNC(=O)[C@@H](Cc2ccccc2)NC1=O | – | New Zealand rabbit | eye drop, single dose | baseline: retina over vitreous | retina to vitreous ratio | ~30 fold
[11CH3]c1ccc2nc(C3CCC3)n(-c3ccc4[nH]ncc4c3)c2n1 | – | human female, skin | – | – | absorbed radiation dose | 2.2 µSv/MBq
CCCC[C@H](NC(=O)CNC(=O)CNC(=O)CN1CCN(CC(=O)O)CCN(CC(=O)O)CCN(CC(=O)O)CC1)C(=O)N[C@H]1CC(=O)NCCCC[C@@H](C(N)=O)NC(=O)[C@H](Cc2c[nH]c3ccccc23)NC(=O)[C@H](CCCNC(=N)N)NC(=O)[C@@H](Cc2ccccc2)NC(=O)[C@H](Cc2c[nH]cn2)NC1=O [copper-64 labelled] | – | female C57 mouse, B16/F1 melanoma | intravenous, 0.037 MBq, 24 h | baseline: tumour over lung | uptake ratio | 1.34
O=C(OCc1cccc(O)c1O)c1ccc(O)c(CO)c1 | – | male CD-1 mouse, plasma | intravenous, 10 mg/kg, single dose | – | C0 | 54600 ng/mL
CC(=O)[CH](C(C)=O)[Pt-2]1([S+](C)C)[O]C(C)=CC(C)=[O+]1 (stereo not drawn) | – | rat, blood | intravenous, 5 mg/kg, single dose | – | total protein | 5.38 ± 2.9 g/dL
NC(=O)[C@@H](Cc1ccccc1)N[11C](=O)OCc1ccccc1 | – | male Wistar rats, plasma | intravenous, 15 min | – | intact tracer | 49.2% and 49%
Cc1ccc(OCC(=O)O)cc1 | – | Sprague-Dawley rat, female, plasma | oral gavage, 30 mg/kg of parent drug | – | t1/2 | 1.7 h
COc1cc(NC(C)=O)c2c(c1O)-c1c(OC)c(OC)cc3c1C(C2)N(C)CC3 (stereo not drawn) | – | rat heart homogenate | 50 µg/mL, 40 d, -20 °C, long-term storage | – | remaining compound | 94 ± 2.5%
O=C(CCc1ccc(CNC(C(=O)O)C2CCCCC2)cn1)NO (stereo not drawn) | – | human, plasma | oral, 40 mg once daily, day 1, geometric mean | – | AUC(tau) | 308 ng·h/mL
CC(C)c1cnc(-c2cc(Cl)ccc2F)cc1Nc1ccncc1C(=O)NC(CO)CO | monotherapy, item: diarrhoea | human patients | oral, dose not given, grade 4, phase I A | – | patients with treatment-related adverse event | 0%

Structure (SMILES) | assay | test system | setting | scale | endpoint | result
CC(C)(O)c1ncc([S@](N)(=O)=NC(=O)Nc2c3c(cc4c2CCC4)CCC3)s1 | – | healthy human | oral, 200 mg once daily, day 14, spray-dried dispersion, geometric mean | – | Cmax | 26300 ng/mL
NC(=O)[C@@H](CCCCNC(=O)CNC(=O)CCC(=O)NCCc1c[nH]cn1)NC(=O)[C@@H](CCC(=O)O)NC(=O)[C@@H](CCCCNC(=O)CNC(=O)CCC(=O)NCCc1c[nH]cn1)NC(=O)[C@@H](Cc1ccc(O)cc1)NC(=O)CN1CCN(CC(=O)O)CCN(CC(=O)O)CCN(CC(=O)O)CC1 [indium-111 labelled] | SPECT | human CEACAM5 tumour patients | dose not given, 24 h, 100 µg IMP288, together with: TF2 75 mg, 5 days interval | – | tumour activity concentration | 1.4 %ID/kg
N=C(N)NCCC[C@@H]1NC(=O)[C@H](Cc2c[nH]c3ccccc23)NC(=O)[C@@H](CC2CCCCC2)NC(=O)[C@@H]2CCCN2C(=O)[C@@H](NC(=O)CCc2ccccc2)CCCNC1=O | – | C57BL/6J mice, brain | oral, 1 mg/kg, two-compartment model | – | apparent distributional clearance | < 0.001 ng/(min·ng/g)
CC(C)[C@H](NC(=O)[C@@H]1CCCN1C(=O)[C@H](CCCNC(=N)N)NC(=O)[C@H](CS)NC(=O)[C@H](Cc1c[nH]c2ccccc12)NC(=O)[C@H](CCCNC(=N)N)NC(=O)[C@@H](Cc1ccccc1)NC(=O)[C@H](Cc1c[nH]cn1)NC(=O)[C@H](CCC(=O)O)NC(=O)[C@H](CS)NC(=O)[C@H](CS)NC(=O)CNC(=O)[C@@H]1CC(=O)N[C@@H](CCCNC(=N)N)C(=O)NCC(=O)N[C@@H](CC(=O)O)C(=O)N[C@H](Cc2ccc(O)cc2)C(=O)N1)C(N)=O [technetium-99m labelled] | RP-HPLC | mouse serum | 24 h, 37 °C | – | serum stability | stable
C[C@H](Oc1cc(-c2cnn(C3CCN(CC[18F])CC3)c2)cnc1N)c1c(Cl)ccc(F)c1Cl | PET imaging | nude mouse, heart | iv, 30 min post injection | – | tracer uptake | 1.9 ± 0.6 %ID/cc
C[C@H](NC(=O)COC(=O)[C@H](C)NC(=O)CO)C(=O)O | – | water | pH 6, 37 °C | – | depolymerization half-life | 1.34 h
COc1cc(N(C)CCN(C)C)c(NC(=O)CCSCC(N)C(=O)O)cc1Nc1nccc(-c2cn(C3CC3)c3ccccc23)n1 (stereo not drawn) | radio-HPLC | human, feces | 0 to 48 h, sample holds 45.32% dose | baseline: dose | excreted amount | 0.74%
CN(CCCN=Cc1ccccc1[O-])CCN(C)CCCN=Cc1ccccc1[O-].[67Ga+3] | – | rat | intravenous, 2 h | baseline: heart over lung | tissue uptake ratio | 2.8 ± 0.4
Cn1c(=O)oc2ccc(-c3ccc(CC(C#N)NC(=O)C4CNCCCO4)c(F)c3)cc21 (stereo not drawn) | item: macule | human | 40 mg single dose, fasted | – | subjects with TEAE | 0%
NC12CNCCNCC(NCc3ccc(CNC(=O)CCCC(=O)NCc4ccc(-c5nncnn5)cc4)cc3)(CNCCNC1)CNCCNC2.[64Cu+2] | OLINDA dosimetry | upper large intestine wall | pretargeting, 24-h interval | – | mean absorbed dose | 0.0411 rad/mCi
COCCOCCOCCOCCC(=O)NCc1cc(CNC(=O)CCOCCOCCOCCOC)cc(-c2cc3cc4nc(c(-c5ccc(CCC(=O)O)cc5)c5[nH]c(cc6nc(c(OC)c2[nH]3)CC6(C)C)cc5-c2cc(CNC(=O)CCOCCOCCOCCOC)cc(CNC(=O)CCOCCOCCOCCOC)c2)CC4(C)C)c1 | – | DMF | room temperature | – | kic^−1 | 9 ns
CC(C)[C@H](NC(=O)CNC(=O)[C@H](CCC(N)=O)NC(=O)[C@H](C)N)C(=O)O | – | human, plasma | intravenous infusion, 15 mg/kg/h, 2 h infusion, geometric mean | – | Vd | 19 L/kg
CC(C)CCCC(C)CCCC(C)CCO[C@@H]1O[C@H](CO)[C@@H](O[C@H]2O[C@H](CO)[C@@H](O)[C@H](O)[C@H]2O)[C@H](O)[C@H]1O (stereo partly drawn) | drop shape analysis | water/n-octane | 0.01 wt% | – | interfacial tension at tmax | < 1 mN/m
CSCOC1C(=O)C2(C)C(OCSC)CC3OCC3(OC(C)=O)C2C(OC(=O)c2ccccc2)C2(O)CC(OC(=O)C(O)C(C=C(C)C)NC(=O)OC(C)(C)C)C(C)=C1C2(C)C (stereo not drawn) | – | female Sprague-Dawley rat, plasma | intravenous, 4 mg/kg | – | half-life | 7.5 h
O=C(Cc1ccc2ccccc2c1)N[C@H](Cc1ccccc1)C(=O)N[C@H](Cc1ccccc1)C(=O)N[C@H](Cc1ccc(O)cc1)C(=O)N[C@H](Cc1ccc(OP(=O)(O)O)cc1)C(=O)O | substrate, rheology | hydrogel | 0.5 wt%, together with: alkaline phosphatase 0.05 U/mL | – | gelation time | 0.7 h
CC(C)C[C@@H](NC(=O)[C@H](NC(=O)[C@H]1CCCN1)[C@H](C)O)C(=O)N[C@H](Cc1c[nH]cn1)C(=O)N[C@@H](C(=O)N[C@H](Cc1c[nH]cn1)C(=O)N[C@H](CC(N)=O)C(=O)N[C@H](CCCNC(=N)N)C(=O)N[C@H](CCCNC(=N)N)C(=O)N[C@H](CCCNC(=N)N)C(=O)N[C@H](CCCNC(=N)N)C(=O)N[C@H](CCCNC(=N)N)C(N)=O)[C@H](C)O | – | Beagle dog, plasma | oral, 20 mg/kg | – | AUC share of terminal phase | 78%
